{"data": "Assay results collected from several papers", "note": "Every numbered part comes from another study and shows a few of its results, in no order. “And” joins repeats or separate records; there may be more than shown.", "UniProt Q6P3R8, sequence (whole entry, looked up)": "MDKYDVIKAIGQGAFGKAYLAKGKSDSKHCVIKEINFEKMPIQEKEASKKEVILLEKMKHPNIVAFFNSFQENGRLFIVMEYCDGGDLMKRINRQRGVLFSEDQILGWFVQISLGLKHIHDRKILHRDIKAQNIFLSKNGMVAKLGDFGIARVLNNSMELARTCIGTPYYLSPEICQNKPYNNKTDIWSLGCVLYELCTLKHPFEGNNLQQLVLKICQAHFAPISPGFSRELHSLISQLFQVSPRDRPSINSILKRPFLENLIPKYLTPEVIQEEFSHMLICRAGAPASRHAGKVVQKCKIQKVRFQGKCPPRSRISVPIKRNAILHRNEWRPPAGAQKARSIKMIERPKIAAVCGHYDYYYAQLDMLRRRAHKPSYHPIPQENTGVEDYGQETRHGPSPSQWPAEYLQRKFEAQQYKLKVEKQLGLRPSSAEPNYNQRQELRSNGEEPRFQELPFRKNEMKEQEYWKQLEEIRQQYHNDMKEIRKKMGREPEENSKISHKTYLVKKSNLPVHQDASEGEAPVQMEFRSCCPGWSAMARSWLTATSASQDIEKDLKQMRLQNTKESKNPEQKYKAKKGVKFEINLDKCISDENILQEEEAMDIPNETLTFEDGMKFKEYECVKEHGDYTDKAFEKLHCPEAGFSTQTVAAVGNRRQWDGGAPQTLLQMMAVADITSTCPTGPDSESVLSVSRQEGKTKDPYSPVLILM", "UniProt O95747, sequence (whole entry, looked up)": "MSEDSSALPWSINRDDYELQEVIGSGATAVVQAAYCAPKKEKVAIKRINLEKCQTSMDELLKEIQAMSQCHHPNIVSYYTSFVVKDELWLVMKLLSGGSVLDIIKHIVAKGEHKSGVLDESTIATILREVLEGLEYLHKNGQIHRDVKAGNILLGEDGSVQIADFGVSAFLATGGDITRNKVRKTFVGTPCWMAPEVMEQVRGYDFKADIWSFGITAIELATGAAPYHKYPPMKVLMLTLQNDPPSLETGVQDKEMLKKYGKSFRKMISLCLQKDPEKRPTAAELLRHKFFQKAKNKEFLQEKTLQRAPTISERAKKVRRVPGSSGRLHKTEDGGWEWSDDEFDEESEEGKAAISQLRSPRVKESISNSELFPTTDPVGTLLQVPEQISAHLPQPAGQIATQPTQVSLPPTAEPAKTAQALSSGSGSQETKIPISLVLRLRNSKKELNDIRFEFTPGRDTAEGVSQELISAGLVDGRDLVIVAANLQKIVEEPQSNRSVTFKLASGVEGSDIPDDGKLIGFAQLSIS", "UniProt Q07912, sequence (whole entry, looked up)": "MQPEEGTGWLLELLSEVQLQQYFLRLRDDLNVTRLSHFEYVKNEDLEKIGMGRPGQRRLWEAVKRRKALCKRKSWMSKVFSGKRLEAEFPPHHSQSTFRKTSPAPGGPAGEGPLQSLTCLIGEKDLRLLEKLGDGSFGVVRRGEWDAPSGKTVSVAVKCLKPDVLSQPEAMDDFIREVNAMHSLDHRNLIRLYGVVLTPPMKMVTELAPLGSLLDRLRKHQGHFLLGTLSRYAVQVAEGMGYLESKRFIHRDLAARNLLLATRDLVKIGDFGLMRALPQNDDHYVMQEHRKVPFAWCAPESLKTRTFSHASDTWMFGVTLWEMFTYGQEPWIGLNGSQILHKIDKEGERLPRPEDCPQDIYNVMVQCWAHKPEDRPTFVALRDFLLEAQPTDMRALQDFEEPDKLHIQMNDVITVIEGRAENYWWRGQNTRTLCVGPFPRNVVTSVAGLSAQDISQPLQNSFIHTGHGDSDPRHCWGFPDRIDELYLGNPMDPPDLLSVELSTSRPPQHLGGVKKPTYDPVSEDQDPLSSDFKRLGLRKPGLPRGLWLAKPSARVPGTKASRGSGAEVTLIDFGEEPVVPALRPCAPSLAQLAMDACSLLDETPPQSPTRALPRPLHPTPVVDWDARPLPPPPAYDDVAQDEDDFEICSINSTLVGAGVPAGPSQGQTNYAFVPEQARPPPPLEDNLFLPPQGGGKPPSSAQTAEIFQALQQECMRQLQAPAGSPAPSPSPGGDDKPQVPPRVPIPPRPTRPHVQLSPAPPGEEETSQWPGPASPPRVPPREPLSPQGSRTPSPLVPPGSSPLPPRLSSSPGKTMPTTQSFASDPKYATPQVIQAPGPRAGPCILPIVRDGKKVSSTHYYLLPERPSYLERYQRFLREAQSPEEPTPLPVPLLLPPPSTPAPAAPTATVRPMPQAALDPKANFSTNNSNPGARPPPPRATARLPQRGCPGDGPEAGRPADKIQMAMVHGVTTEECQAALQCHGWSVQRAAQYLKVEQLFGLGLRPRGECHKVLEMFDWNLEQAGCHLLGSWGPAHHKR", "UniProt O15146, sequence (whole entry, looked up)": "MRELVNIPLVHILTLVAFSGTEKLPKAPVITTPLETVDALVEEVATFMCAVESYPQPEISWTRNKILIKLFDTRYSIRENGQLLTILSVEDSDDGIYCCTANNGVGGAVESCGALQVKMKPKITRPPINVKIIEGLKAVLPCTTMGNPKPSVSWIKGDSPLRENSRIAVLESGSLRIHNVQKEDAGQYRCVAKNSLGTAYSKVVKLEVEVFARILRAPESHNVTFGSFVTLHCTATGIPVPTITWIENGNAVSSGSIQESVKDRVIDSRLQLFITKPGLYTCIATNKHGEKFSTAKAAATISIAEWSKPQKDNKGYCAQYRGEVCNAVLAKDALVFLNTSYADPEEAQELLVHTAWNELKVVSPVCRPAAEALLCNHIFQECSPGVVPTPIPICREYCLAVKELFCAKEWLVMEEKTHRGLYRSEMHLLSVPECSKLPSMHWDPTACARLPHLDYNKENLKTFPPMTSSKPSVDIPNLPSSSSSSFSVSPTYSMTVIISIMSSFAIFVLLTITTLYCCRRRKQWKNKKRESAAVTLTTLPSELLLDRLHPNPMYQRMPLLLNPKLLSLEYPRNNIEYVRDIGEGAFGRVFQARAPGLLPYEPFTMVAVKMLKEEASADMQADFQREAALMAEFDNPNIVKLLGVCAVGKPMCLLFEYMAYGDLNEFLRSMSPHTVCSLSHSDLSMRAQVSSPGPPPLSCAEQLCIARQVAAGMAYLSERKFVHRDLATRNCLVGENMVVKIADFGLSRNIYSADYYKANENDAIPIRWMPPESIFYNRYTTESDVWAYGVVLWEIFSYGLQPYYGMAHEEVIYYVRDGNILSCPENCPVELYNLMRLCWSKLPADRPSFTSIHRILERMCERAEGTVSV", "UniProt P51451, sequence (whole entry, looked up)": "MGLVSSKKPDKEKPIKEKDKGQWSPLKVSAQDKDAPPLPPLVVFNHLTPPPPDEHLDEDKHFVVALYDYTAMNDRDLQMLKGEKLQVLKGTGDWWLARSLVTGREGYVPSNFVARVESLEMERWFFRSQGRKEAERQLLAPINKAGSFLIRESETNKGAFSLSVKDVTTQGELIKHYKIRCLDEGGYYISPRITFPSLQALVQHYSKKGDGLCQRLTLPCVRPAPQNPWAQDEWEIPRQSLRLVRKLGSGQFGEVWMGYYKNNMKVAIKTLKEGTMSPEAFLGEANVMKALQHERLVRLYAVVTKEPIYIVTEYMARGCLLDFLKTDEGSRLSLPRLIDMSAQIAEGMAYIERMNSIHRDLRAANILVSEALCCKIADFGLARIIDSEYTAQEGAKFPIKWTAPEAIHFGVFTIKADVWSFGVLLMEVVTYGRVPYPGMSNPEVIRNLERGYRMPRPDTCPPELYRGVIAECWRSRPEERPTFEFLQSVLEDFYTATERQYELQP"}
{"data": "Series 1", "Structure (SMILES)": "C=CCc1ccc(O)c(-c2ccc(O)c(CC=C)c2)c1", "ANO1 del476-501/F628A": "Anoctamin-1 (ANO1, Homo sapiens, UniProt Q5XXA6, del476-501/F628A)", "ANO1 del476-501": "Anoctamin-1 (ANO1, Homo sapiens, UniProt Q5XXA6, del476-501)", "ANO1 del476-501/K629A": "Anoctamin-1 (ANO1, Homo sapiens, UniProt Q5XXA6, del476-501/K629A)", "UniProt Q5XXA6, sequence (whole entry, unmodified, looked up)": "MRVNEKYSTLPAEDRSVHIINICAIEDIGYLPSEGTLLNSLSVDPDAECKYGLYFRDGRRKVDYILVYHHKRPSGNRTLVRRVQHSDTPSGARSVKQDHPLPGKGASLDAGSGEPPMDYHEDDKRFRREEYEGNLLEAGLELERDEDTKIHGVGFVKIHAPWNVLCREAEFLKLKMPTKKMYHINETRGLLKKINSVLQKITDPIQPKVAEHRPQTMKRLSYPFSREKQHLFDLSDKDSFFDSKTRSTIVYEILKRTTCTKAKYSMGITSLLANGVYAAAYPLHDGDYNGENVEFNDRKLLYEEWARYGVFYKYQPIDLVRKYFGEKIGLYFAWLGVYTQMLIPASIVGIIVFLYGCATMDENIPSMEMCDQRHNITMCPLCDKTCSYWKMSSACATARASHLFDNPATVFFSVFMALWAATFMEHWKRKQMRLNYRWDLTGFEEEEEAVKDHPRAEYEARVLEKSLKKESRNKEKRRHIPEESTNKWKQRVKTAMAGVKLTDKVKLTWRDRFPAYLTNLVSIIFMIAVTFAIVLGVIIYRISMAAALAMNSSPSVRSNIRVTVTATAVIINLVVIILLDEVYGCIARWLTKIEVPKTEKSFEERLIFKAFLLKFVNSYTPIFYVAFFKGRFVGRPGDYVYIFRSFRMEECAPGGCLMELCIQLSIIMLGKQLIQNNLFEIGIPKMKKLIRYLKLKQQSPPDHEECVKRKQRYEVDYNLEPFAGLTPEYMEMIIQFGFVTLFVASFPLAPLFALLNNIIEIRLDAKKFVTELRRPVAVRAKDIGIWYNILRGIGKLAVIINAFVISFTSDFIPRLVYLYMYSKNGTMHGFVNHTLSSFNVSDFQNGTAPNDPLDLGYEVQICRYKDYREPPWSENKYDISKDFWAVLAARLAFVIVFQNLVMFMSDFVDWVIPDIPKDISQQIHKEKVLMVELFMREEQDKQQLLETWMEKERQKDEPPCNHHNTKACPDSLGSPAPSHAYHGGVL"}
{"target": "ANO1 del476-501/F628A", "assay": "chloride current, whole-cell voltage clamp", "setting": "1 µM, concentration-response at -40 mV, with: 4 µM Ca2+", "normalized current": -0.379}
{"target": "ANO1 del476-501", "assay": "chloride current, whole-cell voltage clamp", "setting": "3 µM, wild type, concentration-response at -100 mV, with: 4 µM Ca2+", "normalized current": -0.607}
{"target": "Anoctamin-1 (ANO1, Homo sapiens, UniProt Q5XXA6, del476-501/E649A)", "assay": "ion current, inside-out patch clamp", "setting": "10 µM, E623A mutant at 0 mV", "normalized current": -0.00022}
{"target": "TMEM16A (human) K603A/E623A", "assay": "chloride current, inside-out patch clamp", "setting": "10 µM, membrane voltage 100 mV", "normalized current": 0.773}
{"target": "ANO1 del476-501/K629A", "assay": "chloride current, inside-out patch clamp", "setting": "10 µM, membrane voltage 120 mV", "normalized current": 1}
{"target": "ANO1 del476-501/F628A", "assay": "chloride current, whole-cell voltage clamp", "setting": "100 µM, I-V at 20 mV, with: 4 µM Ca2+", "normalized current": 0.0447}
{"target": "ANO1 del476-501/K629A", "assay": "chloride current, inhibitor, inside-out patch clamp", "setting": "10 µM, K603A mutant at -80 mV", "normalized current": 80.5}
{"target": "ANO1 del476-501", "assay": "chloride current, whole-cell voltage clamp", "setting": "1 µM, wild type, concentration-response at 60 mV, with: 4 µM Ca2+", "normalized current": 0.54}
{"target": "TMEM16A (human) K603A/E623A", "assay": "chloride current, inside-out patch clamp", "setting": "10 µM, membrane voltage 80 mV", "normalized current": 0.546}
{"target": "ANO1 del476-501", "assay": "chloride current, whole-cell voltage clamp", "setting": "30 µM, wild type, concentration-response at -60 mV, with: 4 µM Ca2+", "normalized current": -0.0404}
{"target": "ANO1 del476-501", "assay": "chloride current, whole-cell voltage clamp", "setting": "3 µM, wild type, I-V at -80 mV, with: 4 µM Ca2+", "normalized current": -0.577}
{"target": "Anoctamin-1 (ANO1, Homo sapiens, UniProt Q5XXA6, del476-501/E649A/R541A)", "assay": "chloride current, inside-out patch clamp", "setting": "10 µM, membrane voltage -20 mV", "normalized current": -0.0917}
{"target": "Anoctamin-1 (ANO1, Homo sapiens, UniProt Q5XXA6)", "assay": "chloride current, inside-out patch clamp", "setting": "10 µM, membrane voltage -40 mV", "normalized current": -0.292}
{"target": "ANO1 del476-501/F628A", "assay": "chloride current, inhibitor, whole-cell voltage clamp", "setting": "10 µM, F602A mutant", "normalized current": 0.908}
{"target": "ANO1 del476-501", "assay": "chloride current, whole-cell voltage clamp", "setting": "10 µM, wild type, concentration-response at -60 mV, with: 4 µM Ca2+", "normalized current": -0.166}
{"data": "Series 2", "cell line": "mouse MPNST tumor cells", "method": "high-content immunofluorescence imaging", "measured": "nuclear SOX9", "tested at": "10 µM", "time": "12 h", "setting": "mean of 2 replicates", "reference": "DMSO control", "direction": "higher = more nuclear SOX9"}
{"Structure (SMILES)": "CC(C)(Cc1ccccc1)NCC(O)c1ccc(O)c(NS(C)(=O)=O)c1 (centres unmarked)", "nuclear SOX9 intensity": "101 % of DMSO"}
{"Structure (SMILES)": "CC(S)C(=O)NCC(=O)O (centres unmarked)", "nuclear SOX9 intensity": "146 % of DMSO"}
{"Structure (SMILES)": "N=C1NC(=O)/C(=C/c2ccc(O)cc2)S1", "nuclear SOX9 intensity": "74.8 % of DMSO"}
{"Structure (SMILES)": "Cc1csc(S(=O)(=O)N(CC(C)C)c2cc3c(cc2OCc2ccc(C(=O)O)cc2)CCC3)n1", "nuclear SOX9 intensity": "96.3 % of DMSO"}
{"Structure (SMILES)": "CCN1CCC[C@H]1CNC(=O)c1cc(S(N)(=O)=O)ccc1OC", "nuclear SOX9 intensity": "102 % of DMSO"}
{"Structure (SMILES)": "CCN(Cc1ccncc1)C(=O)C(CO)c1ccccc1 (centres unmarked)", "nuclear SOX9 intensity": "106 % of DMSO and 95.4 % of DMSO"}
{"Structure (SMILES)": "CC(C)Oc1ccc(-c2c[nH]cc2CN(C)CCN)cc1", "nuclear SOX9 intensity": "84 % of DMSO and 102 % of DMSO"}
{"Structure (SMILES)": "Cc1cc(C)nc(NS(=O)(=O)c2ccc(NC(=S)NC(=O)COc3ccc(Br)cc3Cl)cc2)n1", "nuclear SOX9 intensity": "90.8 % of DMSO"}
{"Structure (SMILES)": "Clc1cccc(Nc2nnc(-c3ccccc3)c3ccccc23)c1", "nuclear SOX9 intensity": "110 % of DMSO"}
{"Structure (SMILES)": "CCCCCCC[N+](CC)(CC)CCCCc1ccc(Cl)cc1", "nuclear SOX9 intensity": "74.9 % of DMSO"}
{"Structure (SMILES)": "O=C1CC2(CCCC2)CC(=O)N1CCCCN1CCN(c2ncccn2)CC1", "nuclear SOX9 intensity": "116 % of DMSO and 111 % of DMSO"}
{"Structure (SMILES)": "Fc1ccc(CNc2ncnc3ccc(F)cc23)cc1", "nuclear SOX9 intensity": "124 % of DMSO"}
{"Structure (SMILES)": "CC(CCc1ccc(O)cc1)NCCc1ccc(O)c(O)c1 (centres unmarked)", "nuclear SOX9 intensity": "103 % of DMSO and 99.7 % of DMSO"}
{"data": "Series 3", "target": "Casein kinase I isoform gamma-1 (CSNK1G1, Homo sapiens, UniProt Q9HCP0)", "effect on": "enzyme activity", "mode": "inhibitor", "tested at": "0.5 µM", "reference": "control", "UniProt Q9HCP0, sequence (whole entry, looked up)": "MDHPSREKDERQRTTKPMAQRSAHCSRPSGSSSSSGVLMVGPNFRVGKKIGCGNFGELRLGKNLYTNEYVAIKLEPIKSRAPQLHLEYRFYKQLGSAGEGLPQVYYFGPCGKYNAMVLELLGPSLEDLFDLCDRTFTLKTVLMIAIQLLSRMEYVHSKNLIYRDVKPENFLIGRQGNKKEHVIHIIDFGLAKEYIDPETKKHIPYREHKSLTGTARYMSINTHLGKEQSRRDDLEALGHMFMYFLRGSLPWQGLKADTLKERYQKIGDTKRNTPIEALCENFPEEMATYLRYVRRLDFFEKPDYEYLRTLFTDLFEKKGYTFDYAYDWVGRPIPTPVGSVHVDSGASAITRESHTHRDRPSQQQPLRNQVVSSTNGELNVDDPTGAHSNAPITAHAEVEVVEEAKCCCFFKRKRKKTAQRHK"}
{"Structure (SMILES)": "O=C1Cc2c([nH]c3ccc([N+](=O)[O-])cc23)-c2ccccc2N1", "remaining activity [%]": 100}
{"Structure (SMILES)": "CCc1[nH]c(-c2ccc(OC)cc2)nc1-c1ccncc1", "remaining activity [%]": 101}
{"Structure (SMILES)": "CC#CC(=O)Nc1cc2c(Nc3ccc(F)c(Cl)c3)ncnc2cn1", "remaining activity [%]": 95.5}
{"Structure (SMILES)": "CC[n+]1c(/C=C/N(C)c2ccccc2)n(-c2ccccc2)c2ccc(-c3nc4ccccc4s3)cc21", "remaining activity [%]": 104}
{"Structure (SMILES)": "CCCC(=O)Oc1ccc2[nH]c(C(=O)c3cc4ccccc4[nH]3)cc2c1", "remaining activity [%]": 76.1}
{"Structure (SMILES)": "N#CC(=C(N)Sc1ccc(N)cc1)c1ccccc1C(F)(F)F", "remaining activity [%]": 89}
{"Structure (SMILES)": "Cc1cc(Nc2nc(-c3ccccc3)nc3ccccc23)n[nH]1", "remaining activity [%]": 75.7}
{"Structure (SMILES)": "Cc1ccc(NC2=CC(=O)c3sc(C)nc3C2=O)cc1", "remaining activity [%]": 102}
{"Structure (SMILES)": "COc1cc(Nc2c(C#N)cnc3cc(OCCCN4CCN(C)CC4)c(OC)cc23)c(Cl)cc1Cl", "remaining activity [%]": 95.7}
{"Structure (SMILES)": "Nc1ncnc2c1cnn2-c1ccccc1", "remaining activity [%]": 94.8}
{"Structure (SMILES)": "Oc1ccc(Nc2nc(-c3ccc(Cl)cc3)cs2)cc1", "remaining activity [%]": 94.5}
{"Structure (SMILES)": "COc1ccc(S(=O)(=O)N(CCO)c2ccccc2CN(C)CC=Cc2ccc(Cl)cc2)cc1", "remaining activity [%]": 105}
{"Structure (SMILES)": "CSc1nc(-c2ccnc(N[C@@H](C)c3ccccc3)c2)c(-c2ccc(F)cc2)[nH]1 (racemic)", "remaining activity [%]": 67.2}
{"Structure (SMILES)": "Nc1nccc(-c2c(-c3ccc(F)cc3)ncn2C2CCNCC2)n1", "remaining activity [%]": 83.1}
{"Structure (SMILES)": "NC(=O)c1ccc(N(C(N)=O)c2c(F)cccc2F)nc1-c1ccc(F)cc1F", "remaining activity [%]": 102}
{"Structure (SMILES)": "Fc1ccc(-c2nc3n(c2-c2ccncc2)CCS3)cc1", "remaining activity [%]": 86.6}
{"Structure (SMILES)": "CC(=O)c1ccc(N2CCOCC2)cc1O", "remaining activity [%]": 91.8}
{"data": "Series 4", "SMILES": "C[C@H](c1ccnc(Nc2nc3ccc(-c4cc(N(C)C)ncn4)cc3[nH]2)c1)N1CCN(C(=O)CC(F)(F)F)CC1", "effect on": "cell-free assay", "method": "competition with immobilised ligand", "tested at": "0.1 µM"}
{"target": "BLK (Homo sapiens, UniProt P51451)", "remaining binding": "79%"}
{"target": "NEK5 (Homo sapiens, UniProt Q6P3R8)", "remaining binding": "100%"}
{"target": "PIM1 (Homo sapiens, UniProt P11309)", "remaining binding": "79%"}
{"target": "OXSR1 (Homo sapiens, UniProt O95747)", "remaining binding": "100%"}
{"target": "MAP3K15 (Homo sapiens, UniProt Q6ZN16)", "remaining binding": "96%"}
{"target": "GRK7 (Homo sapiens, UniProt Q8WTQ7)", "remaining binding": "89%"}
{"target": "MET (Homo sapiens, UniProt P08581)", "remaining binding": "100%"}
{"target": "IRAK1 (Homo sapiens, UniProt P51617)", "remaining binding": "100%"}
{"target": "EPHB6 (Homo sapiens, UniProt O15197)", "remaining binding": "100%"}
{"target": "MUSK (Homo sapiens, UniProt O15146)", "remaining binding": "97%"}
{"target": "CDK15 (Homo sapiens, UniProt Q96Q40)", "remaining binding": "100%"}
{"target": "PKN2 (Homo sapiens, UniProt Q16513)", "remaining binding": "95%"}
{"target": "TNK2 (Homo sapiens, UniProt Q07912)", "remaining binding": "100%"}
{"target": "KIT (Homo sapiens, UniProt P10721, D816V)", "remaining binding": "96%"}
